Results gathered from unrelated publications.
Numbered parts are unrelated; each lists some results of a single study.

Set 1
Target: Phosphate system positive regulatory protein PHO4, full length, GST-tagged (PHO4, Saccharomyces cerevisiae, UniProt P07270, residues 1-312)
Technique: competition protein-binding microarray
Form: double-stranded DNA, one strand shown
Sample: in vitro
Tested at: 2 µM
Notes: whole 60-bp probe, lowest competitor level
Added: Cbf1 competitor, 0.05 µM
Direction: higher = stronger binding
Constant ends, left off below: … GTCTTGATTCGCTTGACGCTGCTG
Construct (chain): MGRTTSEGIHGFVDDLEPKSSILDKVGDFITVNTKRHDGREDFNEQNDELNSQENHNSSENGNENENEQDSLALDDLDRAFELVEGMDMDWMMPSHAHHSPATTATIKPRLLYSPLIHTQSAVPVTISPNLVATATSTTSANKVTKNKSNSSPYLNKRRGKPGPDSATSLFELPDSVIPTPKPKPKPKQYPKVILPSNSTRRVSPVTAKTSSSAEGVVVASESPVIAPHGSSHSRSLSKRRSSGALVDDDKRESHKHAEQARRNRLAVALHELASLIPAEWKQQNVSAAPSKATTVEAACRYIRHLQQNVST
| Sequence | fluorescence intensity [a.u.] |
| --- | --- |
| CTAACGAAGGTTTGCTAGGTGGGTGACAAGCCAAGT | 3950 |
| CGGGGTTAAGTTTGAAGCGTGGGTGGCTTGCAGCAG | 8120 |
| TATGTAAAAAATCCGCACGTTGCCAGATACATACCG | 12300 |
| CGTTCCAAGCCGAGTCACGTTTGTGGTGTTGTCGTA | 9780 |
| AAAGCGGTAATTTTTCACGTGGATTCACATATCTAT | 14200 |
| GTCTTGTCTCATTGTCCGGTGGGTGTCCCCACTTCA | 4780 |
| GCTAAATCATATTCCAACGTGTAATGAACGTCCTGG | 10200 |
| CGGGGTTAAGTTTTACACGTGTTTTGCTTGCAGCAG | 16500 |
| TACGGCCCAACTCCGCACGCTGCCAAGGAGAGCATT | 6980 |
| AGACCAGTGTATATTCAGCTGATCCCAATTATCATT | 3090 |
| CAGGGCATCTCGAGCATCGTGGAGGAGATCCCTGTC | 8620 |
| CTTCTGTAAATTTGGTAAGTGGGTGGACGCGCCCCG | 4650 |
| GTATAAAAAGAGTGGCATGTGAACTGCCTACCGTAA | 7130 |
| TATCCGGACATTTTTCCCGTGATGGAATTGGCATCC | 3720 |
| GTATTCTCGGATCGGCACGCAAGCGCAATGCTGAGA | 7890 |
| CGTCCTAGCGATTGATCTGTGGGTGCCATGAGGAAG | 6730 |
| CGGGGTTAAGTTTGAAGAGTGGGTGGCTTGCAGCAG | 3880 |
| CACCCCAACAAAGGACATGTGGAAATTGATCGTCGA | 8130 |
| GTCTTGTCTCATTGCGCTGTGGGTGTCCCCACTTCA | 4450 |
| CTAACGAAGGTTTGGCGCGTGGGTGACAAGCCAAGT | 10300 |
| AAATTACTAAGTTGCCCTGTGGGTGACGCCGTATGA | 4370 |
| CTTTCCCGATCTTGGTACGTGGGTGTAGCACATTTG | 8060 |
| CTTTCCGTTTGCGGACTCGTGCAAAAGCTTACCTTC | 8530 |
| ACCCGGTGCAGGTTCGTCGTGCCGAAAGACTCACCA | 5620 |
| CCATTGTACGGTTCGTACGTGGGTACAATGAATTAC | 6900 |

Set 2
Target: RNA binding protein fox-1 homolog 2, RRM domain, GST-SBP tag (RBFOX2, Homo sapiens, UniProt O43251-10, residues 100-194)
Technique: RNA Bind-n-Seq
Form: RNA
Sample: in vitro
Tested at: 365 nM
Notes: natural RNA segment, single round, ends assumed
Reference: no-protein control
Direction: higher = stronger binding
Constant ends, left off below: GGGAGUUCUACAGUCCGACGAUC … UGGAAUUCUCGGGUGCCAA
Residues (chain): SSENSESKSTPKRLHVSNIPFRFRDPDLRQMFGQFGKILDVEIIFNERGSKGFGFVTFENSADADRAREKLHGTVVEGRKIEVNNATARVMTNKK
| Sequence | RBNS enrichment (R) |
| --- | --- |
| UGAUGGACUCCGGGGGCCUGACACUUGGGAUUUGGGAGGCUUCCUAGAGCGCUCAGCAGGUGAAGGCAGCAGGGGCCAUGGCCGGGAGCCAGGCCUAGCUUUGAACUGAG | 0.624 |
| UCCUGCCCCUUCACCUUGACCCGGGUUCCCCCACUCCCAUUCCCUGGCCUCUGCCAUAAUUUGUUGUUCAACUGCUCCCUCCUUCCUGAGGGGCCUCAGGGCUUGUGGGG | 0.873 |
| CACUGAUGCUGGCGAUGAUGCAGAGCUGUCGCUGCCCUCAGCUCCUGCUGGCUUGUUUAUCAGGGAUAUGGGAGCUGCGGGCAUGACAGCCACAUUCUCCCAGAAGAGAC | 0.353 |
| GUGCCUGUCAACUUUGCAGACUGCUUUUGGCUUCUGGAUGCGCUCCUUCAGUACACAUCCUAUGGCGUGACCCCUCCCAGCCUCAGCCAUUCAGGGAACCGGCAGCGCCC | 0.297 |
| GCAGAUAACCACUUGUUCUUUACUUUUUACAGGUGUGGGAUCCCGAUCCUGAGCUGUGUCCUCUGUGAGGACUUCCCUCCCAGGCUUCAAUCCAGAUGUUUCGUUUCCAG | 0.213 |
| UUUUCAAAAUUGCAGUGCUAAAAGCACACAAUUUCAAGAAAGCCUUCUCUAGUUCCCUGGCUCAGUAGGACAUUUCUUCCACCCACUCCCAGUCCCCCAACACUCCCUUC | 0.543 |
| CCCUACCCCUCUCCCCCAAAUGCAGCUGAAGCAUUUUACAGUGGUUUGCCAUUAGGGUAUUCAUUCAGAUAAUGUUUUCCUACUAGGAAUUACAAACUUUAAACACUUUU | 0.737 |
| CCUGGGCCGCCCAGAGGCUCCUCUCAGGCUGGGCCCCGACGUUUGCGGCAGUGUUCCUUGUGCCCGUGGGGCCGGGAGCGAGUAAAGUCUGGGCCAGGCUGUGUGUGUGU | 0.762 |
| GAAGAUAAAGGGGCAGGAUCAAGGCUUUGUUUGAUCAUUGACCUACCCCCCCCCUCAGGUAGAUUCCCUAGGACAAUGCCAAACCCAGUUUAAGAGUUCCGAAACUGGAG | 0.614 |
| UUGACAUCUGCCUUUAAGACUUGGCUGAGUGUCUCAUUAGUUUAUCAUCACAGAUACGCAGUGUUAUGCAUGUGUAUAGAAGUGUGUGCACCAGCAUCAAACAUUGUGUG | 0.864 |
| AUAUAUAUAAAUAUUAAAUAUAUACAUUUCUCUAUGUGGGCGGGUAUUUUAGAAGGGUUCUCUUCAGCAACUGUAAUACUAACCAGUGUUGCCAACCCCUCCCCACCCCC | 0.724 |
| GAAGAGAAAAAAUUCUCUAAAGCAGGUGAGCUUUAAUGAACAAAUGUGUAUUUUAUCUGAGUUUGAGUAGGGUGCGUUGUGGAUUUUGUUUUUUGGGUUUUUUUUUUUUU | 1.48 |

Set 3
Target: Histone acetyltransferase KAT6A, both winged helices, GST fusion (KAT6A, Homo sapiens, UniProt Q92794, residues 1-181)
Technique: protein binding microarray
Form: double-stranded DNA, one strand shown
Sample: in vitro
Tested at: not given
Notes: 8-mer, flanks averaged, mean of 2 arrays, mostly near background
Reference: not given
Direction: higher = stronger binding
Residues (chain): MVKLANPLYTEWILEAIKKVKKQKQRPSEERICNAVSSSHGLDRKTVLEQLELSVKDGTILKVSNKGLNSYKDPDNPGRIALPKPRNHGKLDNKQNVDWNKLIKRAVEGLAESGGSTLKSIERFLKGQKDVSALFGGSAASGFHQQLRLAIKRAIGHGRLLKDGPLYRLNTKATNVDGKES
| Sequence | E-score |
| --- | --- |
| AGCGGACA | 0.237 |
| ATGATGGC | -0.147 |
| CGACGAGA | -0.0945 |
| CGATTAGA | 0.0884 |
| ACGGATTA | 0.222 |
| AGGATGAC | -0.0272 |
| CGTTTTAA | -0.0931 |
| GGTTCTTA | -0.00178 |
| CCGTAAAA | 0.217 |
| CAACCGTA | 0.111 |
| AAGCCATT | 0.0888 |
| AGACTGAC | -0.0158 |
| CCACTTCA | -0.195 |
| CGGCGTAC | 0.291 |
| GGCCAGAA | -0.173 |
| AATATATT | -0.00235 |
| CGAGCTCG | 0.0614 |
| AACCATTA | -0.0414 |
| ACCTTAAA | -0.106 |
| CGGGGTCA | 0.229 |
| AAACGCGA | 0.153 |
| TAGCGTAA | 0.126 |
| GCTTTCCA | -0.0296 |
| GGAAATAA | -0.131 |

Set 4
Target: Sal-like protein 4, full length isoform B (SALL4, Homo sapiens, UniProt Q9UJQ4-2, residues 1-616)
Technique: universal PBM
Form: double-stranded DNA, one strand shown
Sample: in vitro
Tested at: not given
Notes: 8-mer, flanks averaged, mean of replicates
Direction: higher = stronger binding
| Sequence | E-score |
| --- | --- |
| AGAAAGTC | 0.0839 |
| CGTACAAC | 0.033 |
| CGCACTTC | -0.196 |
| AGTCTAAG | 0.068 |
| TTCCTAAA | 0.173 |
| AGTAATCG | 0.0345 |
| TACGGAGA | -0.0195 |
| CGCACCGA | -0.279 |
| TAATGGCA | 0.138 |
| AGAGAGAT | 0.0248 |
| GCTCGGCA | -0.176 |
| CATGCGTC | -0.196 |
| CACTTCTA | 0.047 |
| CCTTCGGA | -0.239 |
| AAGTACTC | 0.0381 |
| CGGTACTC | -0.098 |
| CAACCACA | 0.101 |
| CAGGAGCG | -0.119 |
| CGACTTAG | -0.0782 |
| GCAGGGGC | -0.346 |
| AAAATACT | 0.28 |
| ACGATTGA | 0.0579 |
| AGATGGAG | -0.1 |
| GCGACGAA | -0.0478 |
| GCGCTTAA | -0.0948 |

Set 5
Target: Interferon regulatory factor 7, full length, phosphomimetic (IRF7, Homo sapiens, UniProt Q92985, residues 1-503, S101K/S471D/S472D/S475D/S476D/S477D/S483D/S484D/S487D)
Technique: protein-binding microarray
Form: double-stranded DNA, one strand shown
Sample: in vitro
Tested at: 250 nM
Notes: 60-bp whole probe
Added: salmon DNA 0.4 mg/ml
Reference: random background probes
Direction: higher = stronger binding
Constant ends, left off below: GCCTAGCAC … GTCTTGATTCGCTTGACGCTGCTG
Construct (chain): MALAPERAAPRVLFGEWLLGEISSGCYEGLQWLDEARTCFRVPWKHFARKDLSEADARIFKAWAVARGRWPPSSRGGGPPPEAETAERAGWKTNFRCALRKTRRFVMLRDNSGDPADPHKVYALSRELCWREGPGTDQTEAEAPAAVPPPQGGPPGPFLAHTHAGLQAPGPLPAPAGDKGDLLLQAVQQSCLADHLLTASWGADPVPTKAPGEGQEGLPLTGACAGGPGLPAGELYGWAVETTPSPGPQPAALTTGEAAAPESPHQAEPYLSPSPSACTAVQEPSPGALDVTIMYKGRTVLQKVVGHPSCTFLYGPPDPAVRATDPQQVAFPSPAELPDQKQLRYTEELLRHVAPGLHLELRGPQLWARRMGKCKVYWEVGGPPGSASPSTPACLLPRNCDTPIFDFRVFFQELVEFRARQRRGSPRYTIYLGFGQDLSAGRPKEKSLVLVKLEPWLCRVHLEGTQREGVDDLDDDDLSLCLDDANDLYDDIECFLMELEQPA
| Sequence | log fluorescence [z-score] |
| --- | --- |
| CAAGTTTCTCCTTTCGGAATGTGCTAG | 4.97 |
| GACGGTTTACTTTTCCTGACGTGCTAG | 0.95 |
| TTAGATTTCAGTTTCGTTTAGTGCTAG | 10 |
| TTAGATTACAGTTTCGATTAGTGCTAG | 8.38 |
| GACGGTTCCCTTTCCCTGACGTGCTAG | 1.82 |
| TCACATCTCATATAAATAACTGTGCTA | 0.984 |
| GGCGGACTGCTTTTCCTGACGTGCTAG | -0.295 |
| GACGAACTGGACTATCGGGACGTGCTA | -0.652 |
| GACGGTATCGGGTGTCGGGACGTGCTA | -0.322 |
| TTAGGTTTCGACTCTGGGTTAGTGCTA | 8 |
| TTATATATCAGTCTCGATTAGTGCTAG | 2.03 |
| TCTAATTAGAATTTAAAACAGTGCTAG | 0.621 |
| TCATATATCTGTGTTATACTGTGCTAG | 0.73 |
| GTCGAACTGGGGACTGGAGACGTGCTA | -0.267 |
| TTAGGTTCCCTTTTCCTTTGGTGCTAG | 3.86 |
| TTAGGTTTCGACTATCAGTTAGTGCTA | 5.23 |
| GACGGTATCGACACTGGGCACGTGCTA | -0.661 |
| TTAGGACGGGACTATCGGTTAGTGCTA | -0.387 |
| TTAGATATTAGTCTCGATTAGTGCTAG | 2.01 |

For quick reference, copied from above (set 4):
| Sequence | E-score |
| --- | --- |
| AGAGAGAT | 0.0248 |
| GCTCGGCA | -0.176 |
| CATGCGTC | -0.196 |
| CACTTCTA | 0.047 |
| CCTTCGGA | -0.239 |
| AAGTACTC | 0.0381 |
| CGGTACTC | -0.098 |
| CAACCACA | 0.101 |
| CAGGAGCG | -0.119 |
| CGACTTAG | -0.0782 |
| GCAGGGGC | -0.346 |
| AAAATACT | 0.28 |
